Measurements of several laboratories.
Compare with care: the assays were run in different laboratories. ± marks the error that the study gave.
ADORA2A: Adenosine receptor A2a (ADORA2A, Homo sapiens, UniProt P29274)
AKR1C2: Aldo-keto reductase family 1 member C2 (AKR1C2, Homo sapiens, UniProt P52895)
MAOB: Amine oxidase [flavin-containing] B (MAOB, Homo sapiens, UniProt P27338)
hdac10: Polyamine deacetylase HDAC10 (hdac10, Danio rerio, UniProt F1QCV2)
ELANE: Neutrophil elastase (ELANE, Homo sapiens, UniProt P08246)
Sigmar1: Sigma non-opioid intracellular receptor 1 (Sigmar1, Rattus norvegicus, UniProt Q9R0C9)
CDK4 with cyclin D3: Cyclin-dependent kinase 4, with cyclin D3 (CDK4, Homo sapiens, UniProt P11802)
AMY2: Pancreatic alpha-amylase (AMY2, Sus scrofa, UniProt P00690)
PNLIP: Pancreatic triacylglycerol lipase (PNLIP, Sus scrofa, UniProt P00591)
PDK1: [Pyruvate dehydrogenase (acetyl-transferring)] kinase isozyme 1, mitochondrial (PDK1, Homo sapiens, UniProt Q15118)
uidA: Beta-glucuronidase (uidA, Escherichia coli, UniProt P05804)
Ectonucleoside triphosphate diphosphohydrolase 3: Ectonucleoside triphosphate diphosphohydrolase 3 (Homo sapiens, UniProt O75355)

| Compound | target | assay | test system | conditions | inhibition |
| --- | --- | --- | --- | --- | --- |
| COc1ccc(-c2nc(CSc3nc(N)c(C#N)c(-c4ccc5c(c4)OCO5)c3C#N)cs2)cc1 | ADORA2A | ligand displacement, radioligand | – | 1 µM, cell membranes | 54% |
| C[C@]12CC[C@@H]3c4ccc(O)cc4CC[C@H]3[C@@H]1CCC2=O | AKR1C2 | enzyme activity, inhibitor, absorbance | – | 100 µM, pH 9 | 50% |
| O=C(/C=C/c1ccc2c(c1)OCCO2)c1ccc(Cl)s1 | MAOB | enzyme activity, inhibitor, fluorescence | – | 1 µM | 89.5% |
| C(=N\N=c1\scc(-c2ccccc2)n1-c1ccccc1)/c1ccc(N2CCOCC2)cc1 | CA2 (Bos taurus, UniProt P00921) | enzyme activity, inhibitor, absorbance | – | 500 µM | 87.6% |
| CN(C)c1ccc(C(=O)NCc2ccc(C(=O)NO)cc2)cc1 | hdac10 | – | – | 1 µM | 42% |
| CS(=O)(=O)c1ccc(Nc2ncnc3[nH]c4cc(Br)ccc4c23)cc1 | PTK6 (Homo sapiens, UniProt Q13882) | enzyme activity, inhibitor, ADP detection | – | 2 µM | 36.5% |
| O=C(NO)c1cc2c(Cl)cccc2s1 | hdac10 | – | – | 1 µM | 56% |
| CCc1nc2ccccc2n1S(=O)(=O)c1ccc2c(c1)C(=O)CC2=O | ELANE | enzyme activity, inhibitor, fluorescence | – | 1 µM | 52.6% |
| C/C(=N\OCCN1CCCC1)c1ccccc1C(F)(F)F | Sigmar1 | radioligand binding | – | 1 µM | 63% |
| O=C1COc2ccc(C(=O)COC(=O)c3ccc4c(c3)C(=O)N(c3ccccc3Cl)C4=O)cc2N1 | Programmed cell death 1 ligand 1, with PD-1 (CD274, Homo sapiens, UniProt Q9NZQ7) | PD-1/PD-L1 binding, inhibitor, TR-FRET | – | 25 µM | ≥ 20% |
| O=C(/C=C/c1ccccc1Cl)NO | hdac10 | – | – | 0.1 µM | 37% |
| O=C(NC1CCCCC1)c1nc(Cl)c2cccnc2c1O | Tripartite terminase subunit 3, C-terminal nuclease domain (Human betaherpesvirus 5, UniProt P16732) | endonuclease activity, ELISA | – | 10 µM | 31 ± 8.5% |
| CCCCCCCCCCCCCCCC(=O)N[C@@H](CCCCN)C(=O)N[C@@H](CCCCN)C(=O)N[C@@H](CO)C(=O)N[C@@H](CCCNC(=N)N)C(=O)N[C@@H](C)C(=O)N[C@@H](CC(C)C)C(=O)N[C@@H](Cc1ccccc1)C(N)=O | F2RL3 (Homo sapiens, UniProt Q96RI0) | platelet aggregation, antagonist | human gel-filtered platelets | concentration not given, with: AYPGKF 200 µM | inactive |
| COc1cc(/C=N\C(=S)NNC(=O)CC2C(=O)c3ccccc3C2=O)cc(OC)c1OC | ELANE | enzyme activity, inhibitor, fluorescence | – | 10 µM | 17.3% |
| CC(C)Cn1cc(-c2ccnc(Nc3ccc(C(=O)Nc4ccccc4N)cc3)n2)nn1 | CDK4 with cyclin D3 | enzyme activity, inhibitor, TR-FRET | – | 50 nM | -1.14% |
| CC(C)(O)C1=CCC(C2CC[C@]3(C)C2CCC2[C@@]4(C)CCC(O)C(C)(C)C4CC[C@]23C)C1=O (some centres unmarked) | AMY2 | enzyme activity, inhibitor, absorbance | – | 250 µM | 22.8% |
| COc1cc(C(=O)O[C@@H]2Cc3c(O)cc(O)cc3O[C@@H]2c2ccc(O)c(O)c2)cc(O)c1O | PNLIP | enzyme activity, inhibitor | – | 10 µM | 47.5% |
| COc1ccc2c(c1Cl)CC[C@@H]1[C@@H]2CC[C@@]2(C)C(=O)CC[C@@H]12 | AKR1C2 | enzyme activity, inhibitor, absorbance | – | 10 µM, pH 9 | 50% |
| O=C(c1ccc(Oc2ccc(Cl)cc2)c([N+](=O)[O-])c1)C(Cl)Cl | PDK1 | enzyme activity, inhibitor, ATP luminescence | – | 2 µM | 53.1% |
| O=C(O)[C@@H](O)[C@H]1OC(=O)[C@H](O)[C@H]1O | uidA | enzyme activity, inhibitor, absorbance | – | 100 µM | 76.2% |
| Oc1ccc2cccc(O)c2n1 | 1-deoxy-D-xylulose 5-phosphate reductoisomerase (Escherichia coli K-12, UniProt P45568) | enzyme activity, inhibitor, absorbance | – | 100 µM | 100% |
| O=C(O[C@H]1Cc2c(O)cc(O)cc2O[C@@H]1c1ccc(O)c(O)c1)c1cc(O)c(O)c(O)c1 | PNLIP | enzyme activity, inhibitor | – | 10 µM | 96.4% |
| COc1ccc2c(c1Br)CC[C@@H]1[C@@H]2CC[C@@]2(C)C(=O)CC[C@@H]12 | AKR1C2 | enzyme activity, inhibitor, absorbance | – | 100 µM, pH 9 | 15% |
| C/C(=N\OCCCN(C)Cc1ccccc1)c1ccc(C(F)(F)F)cc1 | Sigmar1 | radioligand binding | – | 10 µM | 100% |
| CCC(=O)N(C)c1ccc(Cl)c(Cl)c1 | HTR3A (Homo sapiens, UniProt P46098) | ligand displacement, radioligand | – | 10 µM | 12.4% |
| Nc1ncnc2c1ncn2C1OC(COc2ccc(CCC(=O)c3ccccc3C(=O)O)cc2)C(O)C1O (centres unmarked) | 2-succinylbenzoate--CoA ligase (menE, Escherichia coli, UniProt P37353) | enzyme activity, inhibitor, MenE–MenB coupled | – | concentration not given | no inhibition |
| O=C(/C=C/c1cc(F)ccc1Br)NO | hdac10 | – | – | 1 µM | 50% |

| Compound | target | assay | test system | conditions | inhibition |
| --- | --- | --- | --- | --- | --- |
| C/C(=N\OCCN1CCOCC1)c1ccccc1C(F)(F)F | Sigmar1 | radioligand binding | – | 1 µM | 54.4% |
| COc1ccc(C(=O)NO)cc1NC(=O)c1cccc(-c2ccccc2)c1 | hdac10 | – | – | 0.1 µM | < 10% |
| C/C(=N\OCCCCN(C)Cc1ccccc1)c1ccc(C(F)(F)F)cc1 | Sigmar1 | radioligand binding | – | 1 µM | 51.3% |
| C[C@@]12CC[C@@H]3c4ccc(O)c(I)c4CC[C@H]3[C@@H]1CCC2=O | AKR1C2 | enzyme activity, inhibitor, absorbance | – | 100 µM, pH 9 | 75% |
| O=C(NO)C1=CCCC1 | hdac10 | – | – | 1 µM | 93% |
| OB(O)c1ccccc1 | ELANE | enzyme activity, inhibitor, fluorimetric | – | up to 100 µM | inactive |
| O=C(O)c1cc(S(=O)(=O)Nc2ccc(Br)cc2)ccc1Cl | Ectonucleoside triphosphate diphosphohydrolase 3 | enzyme activity, inhibitor, absorbance | – | 100 µM | 37% |
| C[C@]12CC[C@@H]3c4cc(I)c(O)c(I)c4CC[C@H]3[C@@H]1CCC2=O | AKR1C2 | enzyme activity, inhibitor, absorbance | – | 100 µM, pH 9 | 62.2% |
| CC(=O)Nc1cc(COc2c(Cl)cc(CC(N)C(=O)O)cc2Cl)c2oc(-c3ccccc3)nc2c1 (centres unmarked) | SLC38A5 (Homo sapiens, UniProt Q8WUX1) | glutamine uptake | Xenopus oocytes | 1 and 10 µM, 30 min, with: L-[14C]glutamine 50 µM | no inhibition |
| CC(C)c1ccc(COc2ccc(CC(=O)NCCN)cc2Cl)cc1 | PDK1 | enzyme activity, inhibitor, ATP luminescence | – | 1 µM | 54.7% |
| CCOc1c(C(C)(C)O)sc2cnc(Nc3ccc(N4CCC(N5CC6(COC6)C5)CC4)cc3OC)nc12 | CAMK2G (Homo sapiens, UniProt Q13555) | enzyme activity, inhibitor | – | 0.1 µM | 98% |
| CN(CCON=C(c1ccc(C(F)(F)F)cc1)C(F)(F)F)Cc1ccccc1 (mixture of isomers) | Sigmar1 | radioligand binding | – | 10 µM | 102% |
| O=C(CCCCCCOc1ccc(Nc2ncc(F)c(-c3cn(C4CCCCC4)nn3)n2)cc1)NO | CDK4 with cyclin D3 | enzyme activity, inhibitor, TR-FRET | – | 50 nM | 4.5% |
| Cc1cccc(/C=C/C(=O)c2cnn(-c3ccccc3)c2C)c1 | AMY2 | enzyme activity, inhibitor, absorbance | – | 260 µM | 31.8% |
| O=C(O)c1cccc(S(=O)(=O)N2CCOCC2)c1 | Ectonucleoside triphosphate diphosphohydrolase 3 | enzyme activity, inhibitor, absorbance | – | 100 µM | 35% |
| O=C(NO)c1coc(-c2ccccc2)n1 | hdac10 | – | – | 0.1 µM | < 10% |
| CC(=O)C1CCC2(C)C1C(O)CC1C3(C)CCC(O)C(C)(C)C3CCC12C (centres unmarked) | PTPN1 (Homo sapiens, UniProt P18031) | enzyme activity, inhibitor | – | 400 µM, with: p-nitrophenyl phosphate | 3.8% |
| C#CCSc1nc(Sc2nnnn2-c2ccccc2)c2nnn(Cc3ccccc3Cl)c2n1 | MAOB | enzyme activity, inhibitor, luciferase | – | 10 µM | ~40% |
| NC(=O)CCNC(=O)[C@H]1O[C@@H](n2cnc3c(N)ncnc32)[C@H](O)[C@@H]1O | ADORA2A | radioligand binding | HEK293 membranes | 10 µM, with: [3H]CGS21680 | 44 ± 4% |
| O=c1cc(CCl)[nH]c2c(-c3cccc4ccccc34)c(C(F)(F)F)nn12 | SCN9A (Homo sapiens, UniProt Q15858) | sodium current, whole-cell patch clamp | HEK293, stable | 20 µM | 7 ± 3% |
| O=C(Nc1ccc(Cl)cc1)c1cccc(S(=O)(=O)Nc2ccc(Cl)cc2)c1 | Ectonucleoside triphosphate diphosphohydrolase 8 (Homo sapiens, UniProt Q5MY95) | enzyme activity, inhibitor, absorbance | – | 100 µM | 9% |
| COc1cc(C(=O)NC2CCC(N3CCN(CC4CCC5(CCCC5)C4)CC3)CC2)c(F)cc1Nc1ncc2c(n1)N(C1CCCC1(F)F)CC(F)(F)C(=O)N2C (centres unmarked) | FYN (Homo sapiens, UniProt P06241) | cell-free assay, TR-FRET | – | 10 µM | 0.08% |
| C[C@]12CCC[C@H]1[C@@H]1CCc3c(cc(Cl)c(O)c3Cl)[C@H]1CC2 | AKR1C2 | enzyme activity, inhibitor, absorbance | – | 100 µM, pH 9 | 76.8% |
| S=C(Nc1ccc(Cl)cc1)Nc1cccc2cccnc12 | uidA | enzyme activity, inhibitor, absorbance | – | 100 µM | 53.9% |
| COc1ccc2c(c1)CC[C@@H]1[C@@H]2CC[C@@]2(C)C(=O)CC[C@@H]12 | AKR1C2 | enzyme activity, inhibitor, absorbance | – | 100 µM, pH 9 | 35% |
| COC(CO)c1ccc(O)c(O)c1 (centres unmarked) | AMY2 | enzyme activity, inhibitor | – | 500 µM | < 10% |

Some of these lines once more:
| Compound | target | assay | test system | conditions | inhibition |
| --- | --- | --- | --- | --- | --- |
| COc1ccc2c(c1Cl)CC[C@@H]1[C@@H]2CC[C@@]2(C)C(=O)CC[C@@H]12 | AKR1C2 | enzyme activity, inhibitor, absorbance | – | 10 µM, pH 9 | 50% |
| O=C(c1ccc(Oc2ccc(Cl)cc2)c([N+](=O)[O-])c1)C(Cl)Cl | PDK1 | enzyme activity, inhibitor, ATP luminescence | – | 2 µM | 53.1% |
| O=C(O)[C@@H](O)[C@H]1OC(=O)[C@H](O)[C@H]1O | uidA | enzyme activity, inhibitor, absorbance | – | 100 µM | 76.2% |
| Oc1ccc2cccc(O)c2n1 | 1-deoxy-D-xylulose 5-phosphate reductoisomerase (Escherichia coli K-12, UniProt P45568) | enzyme activity, inhibitor, absorbance | – | 100 µM | 100% |
| O=C(O[C@H]1Cc2c(O)cc(O)cc2O[C@@H]1c1ccc(O)c(O)c1)c1cc(O)c(O)c(O)c1 | PNLIP | enzyme activity, inhibitor | – | 10 µM | 96.4% |
